Assay results pooled from the literature.
Lines come from different studies, so protocols differ.
CDK4 with cyclin D1: Cyclin-dependent kinase 4, with cyclin D1 (CDK4, Homo sapiens, UniProt P11802)
CDK4: Cyclin-dependent kinase 4 (CDK4, Homo sapiens, UniProt P11802)
CDK4 with cyclin D3: Cyclin-dependent kinase 4, with cyclin D3 (CDK4, Homo sapiens, UniProt P11802)

`Cc1cnc2nc1Nc1cccc(c1)COC/C=C/COCc1cc(ccc1OCCN1CCOCC1)N2` gave a remaining binding of 100% (CDK4 with cyclin D1; binding; 0.1 µM).
For `COc1cc(Nc2nccc(-c3cnn4nc(OC)ccc34)n2)cc(C(F)(F)F)c1`, the remaining binding was 100% (CDK4; binding, competition with immobilised ligand; 1 µM).
For `Cc1ccc(-c2c(/C=C(\C#N)C(=O)NC(C)C)n(CCCO)c3ncnc(N)c23)cc1`, the remaining binding was 95% (CDK4 with cyclin D3; cell-free assay, competition with immobilised ligand; 1 µM).
`C=CC(=O)N1CCc2ccc(-n3c(=O)ccc4cnc5ccc(-c6cnn(C)c6)cc5c43)cc21` has a remaining binding of 94% (CDK4 with cyclin D1; KINOMEscan; 1 µM; reference: DMSO control).
The remaining binding of `CC(C)=CC1OC(C)(C)C2C=C3C(=O)C(Cl)=CC(O)C3C3C(O)C4OC4C(=O)C132` (stereo not shown) is reported as 81% (CDK4 with cyclin D1; cell-free assay, competition with immobilised ligand; 10 µM).
The remaining binding of `CNC1C[S+]2CC[S+]3CC[S+](C1)[Ru-4]321([N]=C=S)[n]2c3ccc(OC)cc3c3c4c(c5cc(F)c[n+]1c5c32)C(=O)NC4=O` (stereo not shown) is reported as 95% (CDK4 with cyclin D1; KinomeScan; 0.1 µM; reference: untreated).
`C=CC(=O)N1CCCC(n2c(=O)c3ncccc3n(Cc3ccc(Oc4ccccc4)cc3)c2=O)C1` (stereo not shown) has a remaining binding of 79% (CDK4 with cyclin D1; cell-free assay, competition with immobilised ligand; 1 µM).
`C[C@]1(O)CCCN(c2nc(Nc3ccc(S(=O)(=O)N[C@H]4CC[C@H](CN5CCN(c6ccc(C7CCC(=O)NC7=O)cc6F)CC5)CC4)cc3)ncc2C(F)(F)F)C1` (stereo partly shown) has a remaining binding of 100% (CDK4; binding, competition with immobilised ligand; 1 µM).
For `COc1c(Cl)cccc1Nc1c(-c2ccncc2C#C[C@@]2(C)CCCN2C(=O)/C=C/CN(C)C)[nH]c2c1C(=O)NCC2`, the remaining binding was 91% (CDK4 with cyclin D3; binding, competition with immobilised ligand; 3 µM).
`CCN1CCN(Cc2ccc(C(=O)Nc3ccc(C)c(NCc4cnc5[nH]ccc5c4OC)c3)cc2C(F)(F)F)CC1` has a remaining binding of 100% (CDK4 with cyclin D1; binding, competition with immobilised ligand; 1 µM).
The remaining binding of `CNC(=O)C1CCN(c2cc(C)c(F)cc2NC(=O)c2ccc(-c3cc(O)ccc3C)c(C)c2)CC1` is reported as 100% (CDK4 with cyclin D1; binding, competition with immobilised ligand; 1 µM).
`Nc1ncc2c(n1)-c1c([nH]c3ccc(C4=CCOCC4)cc13)CCC2` has a remaining binding of 100% (CDK4; binding, competition with immobilised ligand; 1 µM).
With `O=C(Nc1cc(-c2ccnc3[nH]ccc23)c(Cl)cn1)[C@H]1CCC[C@@H](NC(=O)C(F)(F)F)C1` the remaining binding was 12% (CDK4 with cyclin D1; kinome scan; 0.1 µM; reference: control).

Excerpt of the above:
For `Cc1ccc(-c2c(/C=C(\C#N)C(=O)NC(C)C)n(CCCO)c3ncnc(N)c23)cc1`, the remaining binding was 95% (CDK4 with cyclin D3; cell-free assay, competition with immobilised ligand; 1 µM).
